Measured values pooled from the literature.
Every numbered part comes from another study and shows a few of its results, in no order.

Study 1
Target: Histone acetyltransferase KAT6A, winged helix 1, GST fusion (KAT6A, Homo sapiens, UniProt Q92794, residues 1-85)
Technique: protein binding microarray
Form: double-stranded DNA, one strand shown
Matrix: in vitro
Concentration: not given
Setting: 8-mer, flanks averaged, mean of 2 arrays, mostly near background
Reference: not given
Direction: higher = stronger binding
Quantity: E-score
Construct (chain): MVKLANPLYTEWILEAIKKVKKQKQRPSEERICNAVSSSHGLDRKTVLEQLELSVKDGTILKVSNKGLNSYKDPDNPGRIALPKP
Oligonucleotide = ATGAGGGG; value = -0.205
Oligonucleotide = CCGGTTCA; value = 0.116
Oligonucleotide = CCCCAACA; value = -0.255
Oligonucleotide = ATTTGTCG; value = -0.101
Oligonucleotide = CAAGGGAG; value = -0.205
Oligonucleotide = CGATATAC; value = 0.0696
Oligonucleotide = ACAGGGTA; value = -0.138
Oligonucleotide = ACCTAAGT; value = -0.12
Oligonucleotide = CGGTCATC; value = 0.197
Oligonucleotide = ATTTGAAG; value = -0.00183
Oligonucleotide = CCTCGAGC; value = -0.0256
Oligonucleotide = AAGAGAAC; value = -0.0942
Oligonucleotide = AGACGACG; value = 0.113
Oligonucleotide = CTAGGGCC; value = 0.0179
Oligonucleotide = AAACGAAG; value = -0.142
Oligonucleotide = CCAATTAC; value = -0.118
Oligonucleotide = AACAAAAA; value = -0.158
Oligonucleotide = AAAGATGA; value = -0.212
Oligonucleotide = GGCCGGAA; value = 0.193
Oligonucleotide = ACATCAGC; value = -0.0651
Oligonucleotide = CAGAGTAA; value = -0.0891
Oligonucleotide = AAAATGTA; value = -0.105
Oligonucleotide = GCGGGGCA; value = 0.236
Oligonucleotide = GATCCTGC; value = -0.0874
Oligonucleotide = AGAGTCCG; value = 0.0377

Study 2
Target: RNA binding protein fox-1 homolog 2, RRM domain, GST-SBP tag (RBFOX2, Homo sapiens, UniProt O43251-10, residues 100-194)
Technique: RNA Bind-n-Seq
Form: RNA
Matrix: in vitro
Concentration: 365 nM
Setting: natural RNA segment, single round, ends assumed
Reference: no-protein control
Direction: higher = stronger binding
Quantity: RBNS enrichment (R)
Shared flanks, not repeated: GGGAGUUCUACAGUCCGACGAUC … UGGAAUUCUCGGGUGCCAA
Target sequence (chain): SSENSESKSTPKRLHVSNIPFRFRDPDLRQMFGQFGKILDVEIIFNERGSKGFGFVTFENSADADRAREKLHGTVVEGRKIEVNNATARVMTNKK
Oligonucleotide = CAAACUGAAGGUAACUAUACCUAGACUUAAAUCCUAAGGAAGCAAGUUACCUUCUGGGCAAAGGCUGCCUUCCCACCCUUCCUUUCACGGCACCACACUACAUCCCCAUG; value = 0.335
Oligonucleotide = UUGCCUUCACCCAUAAGCCCCUCGCACUCUGGUGGCAGGUGCCUUGUCCUCAGGGCUACAGCAGUAGGGAGGUCAGUGCUUCGUGCCUCGAUUGAAGGUGACCUCUGCCC; value = 3.51
Oligonucleotide = AAAGCUUUCUGUAUUUCAGAGAGACAUAAGUUACUAGAAAGUGAAAAGUGAAUAAAUAAGUCACAGAGAAUGUAAAUUUUGUACAGUAUUAGAAUGUGUAAAUGAAGCUU; value = 1.78
Oligonucleotide = GCCUCGCUCGUGAACUUCCUGUGGUAACACUUGGGAGCCUGGCCUUUUCCCAGUAUUUCCUGAAUUUGCCCGUGCAGGUGUGUGACCCUCCCUGAGCAUCUGGAGACACC; value = 1.16
Oligonucleotide = CUCAAGUUCUUUCUCUUGGUUAGUCCAGCACACCACUUUGUUCUCUUGGGCCGUAUCUGCUGUGUCACAGGACAAACACUAGGUCUUAUACAGCCCCCUUUUUUCCCCCU; value = 0.912
Oligonucleotide = AGGGAUAAAAUUUAACUUUAUUUUUCUACACAUCUGUUGCCAGGUGAGGCACGUGCUUUGAAGCAGAUGCCUUCAGCCCUCCCUGCUGGGAGGUGGUCUCUCAAGCUCUG; value = 0.31
Oligonucleotide = AACUACCAUAAAGUUAUAUCCACAUGUAAUUUUUUUGAGGAGAUCGAUAAGAGUAGUAGGCACCACAUGUAAGUCAGGGUCAAAUACUUGGAUAUUUAUCUGCAUAUGCA; value = 0.445
Oligonucleotide = CCGAGGGUCCGGCAGGGCACAGGGACAGCCAGGUGGCACCGAGUCACAGGCUGUGGUCCGGUGGCUGAGCAUGCUGUUGUCUUGUCCUUGAUUUUAUUUUCUUUUGUUCU; value = 4.31

Study 3
Target: Ras GTPase-activating protein-binding protein 1, RRM domain (G3BP1, Homo sapiens, UniProt Q13283)
UniProt Q13283, sequence (whole entry, looked up): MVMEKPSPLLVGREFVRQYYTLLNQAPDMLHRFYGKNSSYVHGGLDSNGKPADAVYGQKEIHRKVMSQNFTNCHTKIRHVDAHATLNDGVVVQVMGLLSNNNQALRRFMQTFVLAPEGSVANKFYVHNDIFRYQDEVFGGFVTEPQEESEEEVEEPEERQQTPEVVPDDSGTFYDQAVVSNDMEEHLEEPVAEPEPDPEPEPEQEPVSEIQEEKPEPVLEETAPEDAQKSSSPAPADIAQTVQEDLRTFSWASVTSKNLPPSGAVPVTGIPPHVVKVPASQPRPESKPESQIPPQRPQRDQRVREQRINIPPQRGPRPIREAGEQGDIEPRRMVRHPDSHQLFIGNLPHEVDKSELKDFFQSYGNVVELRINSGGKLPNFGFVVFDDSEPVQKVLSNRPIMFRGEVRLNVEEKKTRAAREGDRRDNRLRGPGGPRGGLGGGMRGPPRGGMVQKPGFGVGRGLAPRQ
Technique: RNA Bind-n-Seq
Form: RNA
Matrix: in vitro
Concentration: 1 µM
Setting: whole 134-nt RNA, ends assumed
With: 150 mM KCl
Reference: input library
Direction: higher = stronger binding
Quantity: log2 enrichment
Shared flanks, not repeated: GGGAGUUCUACAGUCCGACGAUC … UGGAAUUCUCGGGUGUCAAGG
Oligonucleotide = AGUCCUGUGCUACACAUCGUAUGUACCGAAUCGGGGAAAGGGGAAAGGGGAAAGGGGAAAGUAUUAUGUUACGCCGUUCGGAUCUGCACU; value = 1.78
Oligonucleotide = UCAAGUCCUGUGCUACACAUCGUAUGUACCGAAUCGGGGAAGGGGAAGGGAAGGAAAGUAUUAUGUUACGCCGUUCGGAUCUGCACUUCC; value = -0.196
Oligonucleotide = CCUGUGCUACACAUCGUAUGUACCGAAUCGGGGAAAAAAGGGGAAAAAAGGGAAAAAAGGGAAAGUAUUAUGUUACGCCGUUCGGAUCUG; value = -0.0545
Oligonucleotide = CCUGUGCUACACAUCGUAUGUACCGAAUCGGGGUUUUUGGGGAAAAAGGGGAAAAAGGGGAAAGUAUUAUGUUACGCCGUUCGGAUCUGC; value = 0.751
Oligonucleotide = CCUGUGCUACACAUCGUAUGUACCGAAUCAAAUUUUUUUAAAUUUUUUUAAACCCCCAAAAAAGUAUUAUGUUACGCCGUUCGGAUCUGC; value = -1.11
Oligonucleotide = GCAGGAAGUAAAAACAUAUGGAAAUGCUUCGGAUAGUGGCAGGGGUGGGGGUUGCUAAGGAAAGGGUGGGAUGGGAGUGGGUAAAGAGUU; value = 1.17
Oligonucleotide = CCUCAAGUCCUGUGCUACACAUCGUAUGUACCGAAUCGGCCGGCCGGGGCCGGAAAGUAUUAUGUUACGCCGUUCGGAUCUGCACUUCCA; value = -0.485
Oligonucleotide = CACAGACAACACGCACCCAUACAGACACAGAGGGAAGGGGUUGGGAUGGGGACAGGGUGCACAGCAGGGCGGGGUAGGACCCCAGCCCCU; value = 0.199
Oligonucleotide = CUCAAGUCCUGUGCUACACAUCGUAUGUACCGAAUCGGUGGAAAGGUUUUUGGAAAGUAUUAUGUUACGCCGUUCGGAUCUGCACUUCCA; value = -0.224

Study 4
Target: Sal-like protein 4, full length isoform A (SALL4, Homo sapiens, UniProt Q9UJQ4, residues 1-1053)
UniProt Q9UJQ4, sequence (whole entry, looked up): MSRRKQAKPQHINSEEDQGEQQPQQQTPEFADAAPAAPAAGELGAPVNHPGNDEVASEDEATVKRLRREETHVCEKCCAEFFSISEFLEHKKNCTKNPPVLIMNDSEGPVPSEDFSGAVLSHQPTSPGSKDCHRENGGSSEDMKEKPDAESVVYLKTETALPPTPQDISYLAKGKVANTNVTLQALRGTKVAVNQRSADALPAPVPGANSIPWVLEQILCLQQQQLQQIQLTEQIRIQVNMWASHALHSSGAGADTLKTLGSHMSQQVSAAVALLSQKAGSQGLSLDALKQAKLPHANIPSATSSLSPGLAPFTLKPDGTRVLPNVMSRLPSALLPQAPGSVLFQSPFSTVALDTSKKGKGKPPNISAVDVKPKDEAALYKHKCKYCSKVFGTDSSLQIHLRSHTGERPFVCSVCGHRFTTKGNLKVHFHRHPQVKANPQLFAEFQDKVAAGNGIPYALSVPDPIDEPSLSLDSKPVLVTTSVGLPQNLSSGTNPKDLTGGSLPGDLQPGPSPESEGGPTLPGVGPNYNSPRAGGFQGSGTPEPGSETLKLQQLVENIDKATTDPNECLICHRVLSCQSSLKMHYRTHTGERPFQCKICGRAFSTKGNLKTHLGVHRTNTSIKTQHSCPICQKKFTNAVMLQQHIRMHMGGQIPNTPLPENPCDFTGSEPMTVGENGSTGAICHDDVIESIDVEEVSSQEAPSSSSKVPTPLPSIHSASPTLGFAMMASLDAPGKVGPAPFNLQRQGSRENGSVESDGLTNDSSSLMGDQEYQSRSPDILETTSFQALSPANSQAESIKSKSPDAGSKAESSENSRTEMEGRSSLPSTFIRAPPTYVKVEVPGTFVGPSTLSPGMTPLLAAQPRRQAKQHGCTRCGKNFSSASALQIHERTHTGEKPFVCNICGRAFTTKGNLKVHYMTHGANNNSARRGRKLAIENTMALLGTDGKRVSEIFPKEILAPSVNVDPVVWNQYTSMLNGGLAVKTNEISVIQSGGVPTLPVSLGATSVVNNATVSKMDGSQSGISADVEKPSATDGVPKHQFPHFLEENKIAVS
Technique: universal PBM
Form: double-stranded DNA, one strand shown
Matrix: in vitro
Concentration: 600 nM
Setting: 8-mer, flanks averaged, mean of replicates
Direction: higher = stronger binding
Quantity: E-score
Oligonucleotide = CGCGTTGC; value = -0.057
Oligonucleotide = CACGAAAG; value = 0.0253
Oligonucleotide = CATTGGCC; value = -0.235
Oligonucleotide = ATGCTAGA; value = 0.174
Oligonucleotide = ATACACGG; value = 0.19
Oligonucleotide = CTTAATGA; value = 0.142
Oligonucleotide = ACGCGCTG; value = -0.3
Oligonucleotide = ACACACTG; value = -0.113
Oligonucleotide = CGCGCAAG; value = -0.162
Oligonucleotide = TATGCGGA; value = 0.147
Oligonucleotide = CTTCTGCC; value = -0.157
Oligonucleotide = AACAACCG; value = 0.0388
Oligonucleotide = CGCGGGAA; value = -0.18
Oligonucleotide = GGGAACGA; value = -0.2
Oligonucleotide = ACATGTCG; value = 0.0172
Oligonucleotide = CACCAGCA; value = -0.159
Oligonucleotide = GACTAGGC; value = 0.0153
Oligonucleotide = ATGTAGAG; value = 0.141

For quick reference, copied from above (study 3):
Oligonucleotide = CCUGUGCUACACAUCGUAUGUACCGAAUCGGGGAAAAAAGGGGAAAAAAGGGAAAAAAGGGAAAGUAUUAUGUUACGCCGUUCGGAUCUG; value = -0.0545
Oligonucleotide = CCUCAAGUCCUGUGCUACACAUCGUAUGUACCGAAUCGGCCGGCCGGGGCCGGAAAGUAUUAUGUUACGCCGUUCGGAUCUGCACUUCCA; value = -0.485
Oligonucleotide = CCUGUGCUACACAUCGUAUGUACCGAAUCAAAUUUUUUUAAAUUUUUUUAAACCCCCAAAAAAGUAUUAUGUUACGCCGUUCGGAUCUGC; value = -1.11
Oligonucleotide = CUCAAGUCCUGUGCUACACAUCGUAUGUACCGAAUCGGUGGAAAGGUUUUUGGAAAGUAUUAUGUUACGCCGUUCGGAUCUGCACUUCCA; value = -0.224
Oligonucleotide = CACAGACAACACGCACCCAUACAGACACAGAGGGAAGGGGUUGGGAUGGGGACAGGGUGCACAGCAGGGCGGGGUAGGACCCCAGCCCCU; value = 0.199
Oligonucleotide = UCAAGUCCUGUGCUACACAUCGUAUGUACCGAAUCGGGGAAGGGGAAGGGAAGGAAAGUAUUAUGUUACGCCGUUCGGAUCUGCACUUCC; value = -0.196
Oligonucleotide = CCUGUGCUACACAUCGUAUGUACCGAAUCGGGGUUUUUGGGGAAAAAGGGGAAAAAGGGGAAAGUAUUAUGUUACGCCGUUCGGAUCUGC; value = 0.751
